Experimental data of several laboratories.
Each line is one published result; not all experiments were run side by side. ± gives the spread as reported.
Sequence of UniProt P07197 (whole entry, looked up): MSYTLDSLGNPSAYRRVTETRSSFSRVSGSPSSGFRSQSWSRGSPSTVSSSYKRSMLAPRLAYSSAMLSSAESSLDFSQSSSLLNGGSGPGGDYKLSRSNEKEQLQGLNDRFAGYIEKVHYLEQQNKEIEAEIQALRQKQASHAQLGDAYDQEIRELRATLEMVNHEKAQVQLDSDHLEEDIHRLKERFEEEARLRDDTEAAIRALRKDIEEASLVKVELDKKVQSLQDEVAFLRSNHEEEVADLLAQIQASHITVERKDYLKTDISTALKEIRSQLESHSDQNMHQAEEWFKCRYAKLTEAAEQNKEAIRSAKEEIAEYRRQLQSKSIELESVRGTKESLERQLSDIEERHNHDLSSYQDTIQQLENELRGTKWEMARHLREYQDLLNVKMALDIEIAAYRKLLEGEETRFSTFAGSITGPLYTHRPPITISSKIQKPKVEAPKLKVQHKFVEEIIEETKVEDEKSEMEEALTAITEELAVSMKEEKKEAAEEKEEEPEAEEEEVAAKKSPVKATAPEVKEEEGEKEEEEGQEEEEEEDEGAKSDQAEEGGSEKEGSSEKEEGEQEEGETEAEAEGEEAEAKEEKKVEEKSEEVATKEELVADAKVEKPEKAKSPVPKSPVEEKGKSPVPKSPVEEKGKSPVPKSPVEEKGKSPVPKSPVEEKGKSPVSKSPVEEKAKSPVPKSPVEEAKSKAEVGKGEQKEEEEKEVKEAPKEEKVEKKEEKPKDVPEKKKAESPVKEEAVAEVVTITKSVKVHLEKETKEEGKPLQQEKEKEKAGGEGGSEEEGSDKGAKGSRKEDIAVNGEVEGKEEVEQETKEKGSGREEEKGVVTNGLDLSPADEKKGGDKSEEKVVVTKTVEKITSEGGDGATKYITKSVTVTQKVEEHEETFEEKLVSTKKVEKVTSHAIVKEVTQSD
Sequence of UniProt Q01726 (whole entry, looked up): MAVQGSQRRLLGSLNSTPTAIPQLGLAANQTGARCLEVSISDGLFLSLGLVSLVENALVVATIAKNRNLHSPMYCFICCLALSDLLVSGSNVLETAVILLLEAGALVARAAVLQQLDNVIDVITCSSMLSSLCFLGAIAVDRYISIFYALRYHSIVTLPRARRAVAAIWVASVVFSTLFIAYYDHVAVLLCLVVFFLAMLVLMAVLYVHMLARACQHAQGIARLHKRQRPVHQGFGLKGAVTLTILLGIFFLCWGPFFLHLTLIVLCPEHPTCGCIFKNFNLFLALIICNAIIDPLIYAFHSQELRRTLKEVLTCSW
Sequence of UniProt Q13470 (whole entry, looked up): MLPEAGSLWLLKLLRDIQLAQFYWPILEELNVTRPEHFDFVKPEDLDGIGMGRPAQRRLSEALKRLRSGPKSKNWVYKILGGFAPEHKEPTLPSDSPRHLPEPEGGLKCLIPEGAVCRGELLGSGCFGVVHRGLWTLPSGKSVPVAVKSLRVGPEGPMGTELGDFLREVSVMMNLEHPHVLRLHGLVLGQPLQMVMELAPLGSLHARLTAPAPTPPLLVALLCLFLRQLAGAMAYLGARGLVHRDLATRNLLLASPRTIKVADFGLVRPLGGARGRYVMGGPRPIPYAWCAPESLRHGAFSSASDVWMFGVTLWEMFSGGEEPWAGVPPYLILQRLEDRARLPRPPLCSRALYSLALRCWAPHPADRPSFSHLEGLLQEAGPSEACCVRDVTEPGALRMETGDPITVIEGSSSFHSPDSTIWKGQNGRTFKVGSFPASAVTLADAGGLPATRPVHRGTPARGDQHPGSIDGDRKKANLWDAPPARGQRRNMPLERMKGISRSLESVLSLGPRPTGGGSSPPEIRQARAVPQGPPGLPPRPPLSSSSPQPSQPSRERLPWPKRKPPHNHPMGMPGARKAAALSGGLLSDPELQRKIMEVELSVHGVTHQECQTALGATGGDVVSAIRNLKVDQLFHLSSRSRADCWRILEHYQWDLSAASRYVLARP

CCC[C@@](N)(CO)CCc1ccc(OCCCCCC(C)C)cc1  Tmax (dog, male hounds, plasma; oral capsule, 5 mg/kg, median): 3 h
O=C(Nc1ccccc1)C1CCN(C(=O)Oc2cccnc2)CC1  change in Colors score (psychotropic effects VAS; healthy women; 60 mg; baseline: pre-dose baseline, direction not given): 0
COc1cccc(C=CC(=O)C=Cc2cccc(OC)c2OC)c1OC  apoptosis (acridine orange staining; zebrafish (Danio rerio) larvae; up to 25 µM, larvae at 96 hpf): no effect
COc1ccc([C@@H](O)c2cc(-c3ncnc4cc(N5CCOCC5)ccc34)c(F)cc2Cl)nn1  abdominal pain incidence (patients, advanced solid tumours; oral, 300 mg twice daily, treatment-emergent, with: avelumab): 4%
O=C(O)CCC(CP(=O)(O)O)C(=O)O (stereo not shown)  measured concentration (rat, processed derivatized plasma; 8 µg/mL, 18 h, 10 °C, autosampler stability): 8.06 ± 0.45 µg/mL
CO[C@H]1C[C@@H]2CC[C@@H](C)[C@@](O)(O2)C(=O)C(=O)N2CCCC[C@H]2C(=O)O[C@H]([C@H](C)C[C@@H]2CC[C@@H](OC(=O)NCCOCCOCCOCCOCCOCCOCCOCCOCCC(=O)N3CCc4cc(Cn5nc(-c6ccc7oc(N)nc7c6)c6c(N)ncnc65)ccc4C3)[C@H](OC)C2)C[C@@H](O)[C@H](C)/C=C(\C)[C@@H](O)[C@@H](OC)C(=O)[C@H](C)C[C@H](C)/C=C/C=C/C=C/1C  Neutropenia AE leading to dose reduction (patients with advanced solid tumours; intravenous, 1.6 mg/3 mg weekly, any grade): 0%
CC(C)(c1ccccc1)c1cc(-n2nc3ccccc3n2)c(O)c(C(C)(C)c2ccccc2)c1  daily dermal exposure dose (human aged 2-3 years; concentration not given, sunscreen, 95th percentile): 1.97 ng/kg/day
CN1CC[C@@H](c2c(O)cc(O)c3c(=O)cc(-c4ccc(C(F)(F)F)cc4Cl)oc23)[C@@H]1CO  patients with adverse event (item: Syncope; relapsed AML; oral, 150 mg, grade 3-4, intermittent dosing): 0%
COc1ccc(N2C(=O)N(c3c(C)cccc3Cl)Cc3cnc(Nc4ccc(C5CCN(C)CC5)cc4OC)nc32)nc1  inhibition (Non-receptor tyrosine-protein kinase TNK1 (TNK1, Homo sapiens, UniProt Q13470); kinase activity; 0.5 µM): 72%
COc1cc(Nc2ncc(F)c(Nc3ccc4c(n3)NC(=O)C(C)(C)O4)n2)cc(OC)c1OC  IC50 (Melanocyte-stimulating hormone receptor (MC1R, Homo sapiens, UniProt Q01726)): > 10 µM
C[C@H]1CN(c2n[nH]c3nc(N[C@H]4CC[C@H](NS(=O)(=O)CCC(F)(F)F)CC4)ncc23)CCO1  remaining binding (Neurofilament medium polypeptide (Homo sapiens, UniProt P07197); Kinobeads competition, item: NEFM; 0.032 µM, unit not given; baseline: vehicle): 0.68
CCCC1CCC(C2CCC(c3ccc(F)c(F)c3)CC2)CC1 (stereo not shown)  fetal accumulation (rat, fetus; 1000 ng/mL in perfusate, middle dose, mixture of 21 LCMs): 0.102 ± 0.063 ng/g
CNC(=O)c1c(N(C)N=O)ncn1C  revertant colonies per plate (Salmonella typhimurium; mutagenicity, Ames plate incorporation; TA98; 2500 µg/plate, without S9, methanol): 17.3 ± 3
CC(=O)c1c(C)c2cnc(Nc3ccc(C4CCN(CCS(C)(=O)=O)CC4)cn3)nc2n(C2CCCC2)c1=O  Cmax (human, dose-escalation trial, plasma; oral, 25 mg twice daily, day 21, multiple doses): 79.9 ng/mL
CC[C@H](C)[C@H](NC(=O)[C@H](C)NC(=O)[C@H](CCCCN)NC(=O)[C@H](CC(C)C)NC(=O)[C@H](C)NC(=O)[C@@H](NC(=O)[C@H](Cc1c[nH]cn1)NC(=O)[C@H](CC(C)C)NC(=O)[C@@H](NC(=O)[C@@H](NC(=O)[C@H](CCCCN)NC(=O)[C@H](C)NC(=O)[C@H](C)NC(=O)[C@H](CO)NC(=O)[C@H](CCCCN)NC(=O)[C@H](Cc1ccccc1)NC(=O)[C@@H](NC(=O)[C@H](CCCCN)NC(=O)[C@H](CC(C)C)NC(=O)[C@H](Cc1ccccc1)NC(=O)[C@H](CO)NC(=O)[C@H](CCCCN)NC(=O)[C@H](Cc1c[nH]c2ccccc12)NC(=O)[C@H](CCCCN)NC(C)=O)[C@@H](C)O)[C@@H](C)O)C(C)C)[C@@H](C)O)C(=O)N[C@@H](CO)C(=O)N[C@@H](CO)C(N)=O  AUC(0-t) (minipigs, both sexes, plasma; intravenous, 20 mg per animal): 12300 ± 1920 ng·h/mL
COC(=O)C1=CCCN(C)C1  tolerated dose (nude mice; intraperitoneal, 4 weeks): ≤ 50 mg/kg/day
C[C@]1(CO)Cc2ncn(-c3ccc(C#N)c(Cl)c3)c2C(=O)O1  Cmax at steady state (human, plasma; 40 mg once daily, fasted): 1300 nM
Nc1ncnc2c1ncn2[C@@H]1O[C@@H]2COP(=O)([S-])O[C@@H]3[C@H](O)[C@@H](COP([O-])(=S)O[C@H]2[C@H]1O)O[C@H]3n1cnc2c(N)ncnc21.[Na+].[Na+] (stereo partly shown)  MCH (non-tumor-bearing mice, blood; intravenous, 1 mg/kg, toxicity study): 23.1 ± 0.33 pg
COc1ncccc1-c1cnn2ccc(N3CCN(C(=O)OC(C)C)CC3)nc12  free concentration (rat CCI model, plasma; oral, 3 mg/kg, 210 min): 10 nM
CC(C)(c1ccc(O)cc1)c1ccc(O)cc1  dose fraction in permeate (ultrafiltration; cow milk whey; 200 nM nominal in whole milk): 18.9%
C[C@@H](O)[C@@H](CO)NC(=O)[C@@H](CCCNC(=N)N)NC(=O)[C@@H]1CCCN1C(=O)[C@@H]1CSSC[C@H](NC(=O)[C@H](Cc2ccccc2)NC(=O)CN2CCN(CC(=O)O)CCN(CC(=O)O)CCN(CC(=O)O)CC2)C(=O)N[C@@H](Cc2ccc(O)cc2)C(=O)N[C@@H](Cc2ccccc2)C(=O)N[C@@H](CCC(N)=O)C(=O)N[C@@H](CC(N)=O)C(=O)N1 [gallium-68 labelled]  tissue uptake (Wistar rat, muscle; intravenous, 8 MBq, 120 min, group mean): 0.07 %ID/g
[O-][S+]1CCc2nc(N3CCC(c4ncc(Cl)cn4)CC3)nc(NC3(CO)CCC3)c21 (stereo not shown)  subjects with adverse events (phase I trial, item: nervous system disorders; healthy male volunteers; dose not given, multiple rising dose, all cohorts): 31.3%
CCN(CC)CCCC[C@H](NC(=O)[C@H](CC(C)C)NC(=O)[C@H](C)NC(=O)[C@H](Cc1ccccc1)NC(=O)c1ccc(C(C)(C)C)cc1)C(=O)N[C@@H](CO)C(=O)OC  plasma concentration (male Swiss Albino mice, plasma; intraperitoneal, 10 mg/kg, 0.05 h): 199 ng/mL
CCN1[C@@H](C(=O)NC23CCC(C(=O)O)(CC2)CC3)[C@H](c2cccc(Cl)c2F)[C@]2(C(=O)Nc3cc(Cl)ccc32)C12CCCCC2  abdominal pain incidence (patients with advanced solid tumours; oral, 100 mg): 0%
CC(=O)NCC(=O)NCC(=O)N[C@H](C(=O)N[C@@H](Cc1ccc(O)cc1)C(=O)N[C@@H](CO)C(=O)N[C@H]1CSSC[C@@H](C(=O)N[C@@H](CCCNC(=N)N)C(=O)N2CCC[C@H]2C(=O)N[C@@H](CCC(N)=O)C(=O)N[C@@H](CCCNC(=N)N)C(=O)NCC(=O)NCCC(=O)N[C@@H](CCCCNC(=O)CN(CC(=O)NCCCC[C@H](NC(=O)CCNC(=O)CNC(=O)[C@H](CCCNC(=N)N)NC(=O)[C@H](CCC(N)=O)NC(=O)[C@@H]2CCCN2C(=O)[C@H](CCCNC(=N)N)NC(=O)[C@@H]2CSSC[C@H](NC(=O)[C@H](CO)NC(=O)[C@H](Cc3ccc(O)cc3)NC(=O)[C@@H](NC(=O)CNC(=O)CNC(C)=O)[C@@H](C)O)C(=O)N[C@@H](Cc3c[nH]cn3)C(=O)N[C@@H](Cc3ccccc3)C(=O)NCC(=O)N[C@@H](C)C(=O)N[C@@H](CC(C)C)C(=O)N[C@@H]([C@@H](C)O)C(=O)N[C@@H](Cc3c[nH]c4ccccc34)C(=O)N[C@@H](C(C)C)C(=O)N2)C(N)=O)C(=O)CCN)C(N)=O)NC(=O)[C@H](C(C)C)NC(=O)[C@H](Cc2c[nH]c3ccccc23)NC(=O)[C@H]([C@@H](C)O)NC(=O)[C@H](CC(C)C)NC(=O)[C@H](C)NC(=O)CNC(=O)[C@H](Cc2ccccc2)NC(=O)[C@H](Cc2c[nH]cn2)NC1=O)[C@@H](C)O  serum concentration (MSD immunoassay; BALB/c mice, healthy female, serum; subcutaneous, 0.08 mg/kg, 0.5 h, LLOQ 2.0 ng/mL): not detected
C[C@@H](NC(=O)N1C(=O)[C@H](Cc2ccnc(N)c2)[C@H]1C(=O)O)C1CCCCC1  incidence of grade 3 or higher AEs (healthy adult Chinese volunteers; continuous intravenous infusion, 0.6 mg/kg/h, 5-day infusion, CTCAE 5.0 grading): 0%
CC[C@H](C)[C@@H]1NC(=O)[C@@H]2CCCN2C(=O)[C@H](CC(C)C)NC(=O)[C@H](CC(C)C)NC(=O)CNC(=O)[C@@H](NC(=O)[C@@H](NC(=O)[C@H](CC(=O)O)NC(=O)CNC(=O)[C@@H](NC(=O)[C@H](C)NC(=O)CNC(=O)[C@H](CCCCN)NC(=O)[C@H](CC(C)C)NC(=O)[C@H](CC(C)C)NC(=O)[C@H](CCCCN)NC(=O)CNC(=O)[C@@H](NC(=O)[C@@H](N)CC(C)C)C(C)C)C(C)C)C(C)C)CSSC[C@@H](C(=O)O)NC1=O  log2 fold change (RNA-seq, item: Nfil3; mouse, traumatic brain injury model, frontal cortex and hippocampus; dose not given; baseline: TBI alone): -1.58
CCCCCCCCCCCCCCCC(=O)N[C@@H](CCC(=O)NCCCC[C@H](NC(=O)[C@H](CC(=O)O)NC(=O)[C@H](CO)NC(=O)[C@@H](NC(=O)[C@H](Cc1ccccc1)NC(=O)[C@@H](NC(=O)CNC(=O)[C@H](CCC(N)=O)NC(=O)[C@H](CO)NC(=O)[C@@H](N)Cc1c[nH]cn1)[C@@H](C)O)[C@@H](C)O)C(=O)N[C@@H](CO)C(=O)N[C@@H](CCC(=O)O)C(=O)N[C@@H](Cc1ccc(O)cc1)C(=O)N[C@@H](CC(C)C)C(=O)N[C@@H](CC(=O)O)C(=O)N[C@@H](CO)C(=O)N[C@@H](CCC(=O)O)C(=O)N[C@@H](CCCNC(=N)N)C(=O)N[C@@H](C)C(=O)N[C@@H](CCCNC(=N)N)C(=O)N[C@@H](CC(=O)O)C(=O)N[C@@H](Cc1ccccc1)C(=O)N[C@H](C(=O)N[C@@H](C)C(=O)N[C@@H](Cc1c[nH]c2ccccc12)C(=O)N[C@@H](CC(C)C)C(=O)N[C@@H](CCC(=O)O)C(=O)N[C@@H](C)C(=O)NCC(=O)NCC(=O)O)C(C)C)C(=O)O  treatment-related adverse events (item: Vomiting; humans all renal groups; subcutaneous, 100 µg single dose): 35.1%
Cn1c(=O)c2c(ncn2C)n(C)c1=O  acceptor concentration (PAMPA; pre-coated trilayer membrane; 200 µM, 5 h, pH 7.4, acceptor plate, PBS): 43.6 ± 5 µM
CC[C@H](C)[C@H](NC(=O)[C@H](Cc1ccccc1)NC(=O)[C@H](CCC(=O)O)NC(=O)[C@H](CCCNC(=N)N)NC(=O)[C@H](C)NC(=O)[C@H](C)NC(=O)[C@H](CCC(N)=O)NC(=O)[C@H](CCC(=O)O)NC(=O)[C@H](CCC(=O)O)NC(=O)[C@H](CC(C)C)NC(=O)[C@H](Cc1ccc(O)cc1)NC(=O)[C@H](CO)NC(=O)[C@H](CO)NC(=O)[C@@H](NC(=O)[C@H](CC(=O)O)NC(=O)[C@H](CO)NC(=O)[C@@H](NC(=O)[C@H](Cc1ccccc1)NC(=O)[C@@H](NC(=O)CNC(=O)[C@H](CCC(=O)O)NC(=O)[C@H](C)NC(=O)CCc1c[nH]cn1)[C@@H](C)O)[C@@H](C)O)C(C)C)C(=O)N[C@@H](C)C(=O)N[C@@H](Cc1c[nH]c2ccccc12)C(=O)N[C@@H](CC(C)C)C(=O)N[C@H](C(=O)N[C@@H](CCCNC(=N)N)C(=O)NCC(=O)N[C@@H](CCCNC(=N)N)C(=O)N[C@@H](CCCCNC(=O)COCCOCCNC(=O)COCCOCCNC(=O)CC[C@H](NC(=O)CCCCCCCCCCCCCCCCC(=O)O)C(=O)O)C(=O)NCC(=O)NCC(=O)N[C@@H](CO)C(=O)N[C@@H](CCCCNc1c(NCCCCCN(O)C(=O)CCC(=O)NCCCCCN(O)C(=O)CCC(=O)NCCCCCN(O)C(C)=O)c(=O)c1=O)C(=O)O)C(C)C [zirconium-89 labelled]  tissue uptake (rat, heart; sc, 3 nmol/kg, 168 h, ex vivo): 0.06 %ID/g
C[C@]1(O)C[C@@](N)(c2ccc(-c3nc4n(c3-c3ccccc3)COc3ccncc3-4)cc2)C1  patients with Hyperphosphatemia TEAE (human, advanced or metastatic solid tumours; once daily, dose escalation total, any grade): 33.3%
Clc1ccc(-c2ccccc2)cc1  gamma-glutamyltransferase (Sprague-Dawley rats, female, serum; inhalation, 23 µg/rat, 2 h after exposure): 1.3 ± 1.5 U/L
C[C@@H](O)[C@H](NC(=O)[C@@H]1CSSC[C@H](NC(=O)[C@@H](Cc2ccccc2)NC(=O)CN2CCN(CC(=O)[O-])CCN(CC(=O)[O-])CCN(CC(=O)[O-])CC2)C(=O)N[C@@H](Cc2ccc(O)cc2)C(=O)N[C@H](Cc2c[nH]c3ccccc23)C(=O)N[C@@H](CCCCN)C(=O)N[C@@H]([C@@H](C)O)C(=O)N1)C(=O)O.[177Lu+3]  uptake (MEC1 treated with 100 µM zebularine; gamma counter; serum-free RPMI; 120 min, 37 °C): 1.59%
COc1cc2c(Oc3ccc4[nH]c(C)cc4c3F)ccnc2cc1OCC1(N)CC1  Epistaxis incidence (paediatric recurrent refractory sarcoma; 10 mg): 25%

Repeated from above:
C[C@H]1CN(c2n[nH]c3nc(N[C@H]4CC[C@H](NS(=O)(=O)CCC(F)(F)F)CC4)ncc23)CCO1  remaining binding (Neurofilament medium polypeptide (Homo sapiens, UniProt P07197); Kinobeads competition, item: NEFM; 0.032 µM, unit not given; baseline: vehicle): 0.68
CCCC1CCC(C2CCC(c3ccc(F)c(F)c3)CC2)CC1 (stereo not shown)  fetal accumulation (rat, fetus; 1000 ng/mL in perfusate, middle dose, mixture of 21 LCMs): 0.102 ± 0.063 ng/g
CNC(=O)c1c(N(C)N=O)ncn1C  revertant colonies per plate (Salmonella typhimurium; mutagenicity, Ames plate incorporation; TA98; 2500 µg/plate, without S9, methanol): 17.3 ± 3
